Measured values from different studies.
Protocols differ between the studies behind these lines. Numbers after ± are the reported error.
Chain of UniProt O66465 (whole entry, unmodified, looked up): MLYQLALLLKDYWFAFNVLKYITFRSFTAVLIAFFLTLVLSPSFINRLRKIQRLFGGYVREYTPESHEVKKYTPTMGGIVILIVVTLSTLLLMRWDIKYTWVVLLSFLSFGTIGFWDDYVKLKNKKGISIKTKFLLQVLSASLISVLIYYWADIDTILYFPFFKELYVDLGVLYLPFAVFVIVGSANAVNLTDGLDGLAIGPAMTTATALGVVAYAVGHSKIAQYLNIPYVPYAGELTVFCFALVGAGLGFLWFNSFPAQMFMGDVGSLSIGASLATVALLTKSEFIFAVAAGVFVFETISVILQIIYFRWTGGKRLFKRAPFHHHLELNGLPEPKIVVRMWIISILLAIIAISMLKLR
Chain of UniProt A0A109QYD3 (whole entry, looked up): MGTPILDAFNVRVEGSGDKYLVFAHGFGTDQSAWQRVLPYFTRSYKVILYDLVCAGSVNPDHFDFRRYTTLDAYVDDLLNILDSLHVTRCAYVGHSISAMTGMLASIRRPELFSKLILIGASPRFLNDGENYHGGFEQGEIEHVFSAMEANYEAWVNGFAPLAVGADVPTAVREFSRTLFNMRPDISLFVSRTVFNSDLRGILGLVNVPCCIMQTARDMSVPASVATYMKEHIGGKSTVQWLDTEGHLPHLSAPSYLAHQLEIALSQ
Chain of UniProt P15328 (whole entry, looked up): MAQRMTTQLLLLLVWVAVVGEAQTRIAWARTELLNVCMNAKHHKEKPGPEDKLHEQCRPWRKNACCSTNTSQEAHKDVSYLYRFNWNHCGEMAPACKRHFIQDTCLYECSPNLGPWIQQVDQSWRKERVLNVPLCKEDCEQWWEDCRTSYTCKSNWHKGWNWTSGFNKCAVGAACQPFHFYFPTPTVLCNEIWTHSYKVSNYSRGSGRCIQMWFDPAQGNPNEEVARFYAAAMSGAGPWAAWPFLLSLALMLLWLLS
Chain of UniProt P22607 (whole entry, looked up): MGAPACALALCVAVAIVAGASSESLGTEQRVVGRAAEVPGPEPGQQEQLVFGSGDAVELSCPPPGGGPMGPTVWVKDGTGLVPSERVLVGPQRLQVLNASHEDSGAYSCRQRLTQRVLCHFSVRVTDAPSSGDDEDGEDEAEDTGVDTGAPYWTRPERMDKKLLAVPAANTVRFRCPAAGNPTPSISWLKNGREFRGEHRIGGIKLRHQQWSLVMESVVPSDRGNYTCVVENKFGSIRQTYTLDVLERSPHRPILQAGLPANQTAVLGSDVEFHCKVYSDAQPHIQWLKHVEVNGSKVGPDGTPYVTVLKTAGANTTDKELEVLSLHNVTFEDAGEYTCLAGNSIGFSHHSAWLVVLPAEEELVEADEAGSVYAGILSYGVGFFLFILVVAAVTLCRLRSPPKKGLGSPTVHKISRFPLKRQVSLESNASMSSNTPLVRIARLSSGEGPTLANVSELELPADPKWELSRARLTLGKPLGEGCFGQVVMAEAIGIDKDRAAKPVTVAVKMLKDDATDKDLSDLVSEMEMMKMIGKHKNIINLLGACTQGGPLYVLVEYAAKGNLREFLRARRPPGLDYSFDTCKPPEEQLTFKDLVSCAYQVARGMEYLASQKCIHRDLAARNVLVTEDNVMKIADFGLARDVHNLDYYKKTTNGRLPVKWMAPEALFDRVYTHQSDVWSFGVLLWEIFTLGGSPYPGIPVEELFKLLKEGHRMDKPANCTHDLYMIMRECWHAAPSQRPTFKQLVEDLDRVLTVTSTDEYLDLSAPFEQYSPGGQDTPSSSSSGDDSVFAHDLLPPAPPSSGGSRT
Chain of UniProt Q8I2X3 (whole entry, looked up): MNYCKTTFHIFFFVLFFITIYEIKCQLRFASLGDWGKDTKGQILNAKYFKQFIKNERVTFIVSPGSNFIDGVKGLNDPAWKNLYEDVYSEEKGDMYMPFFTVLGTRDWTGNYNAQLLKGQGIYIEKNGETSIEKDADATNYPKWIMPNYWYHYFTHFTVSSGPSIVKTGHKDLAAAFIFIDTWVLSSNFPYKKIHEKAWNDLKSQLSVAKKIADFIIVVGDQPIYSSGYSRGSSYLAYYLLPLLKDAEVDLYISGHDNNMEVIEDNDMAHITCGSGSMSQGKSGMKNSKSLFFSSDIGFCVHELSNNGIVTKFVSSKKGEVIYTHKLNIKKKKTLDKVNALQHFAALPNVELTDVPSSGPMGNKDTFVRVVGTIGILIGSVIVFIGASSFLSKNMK
Chain of UniProt Q02790 (whole entry, looked up): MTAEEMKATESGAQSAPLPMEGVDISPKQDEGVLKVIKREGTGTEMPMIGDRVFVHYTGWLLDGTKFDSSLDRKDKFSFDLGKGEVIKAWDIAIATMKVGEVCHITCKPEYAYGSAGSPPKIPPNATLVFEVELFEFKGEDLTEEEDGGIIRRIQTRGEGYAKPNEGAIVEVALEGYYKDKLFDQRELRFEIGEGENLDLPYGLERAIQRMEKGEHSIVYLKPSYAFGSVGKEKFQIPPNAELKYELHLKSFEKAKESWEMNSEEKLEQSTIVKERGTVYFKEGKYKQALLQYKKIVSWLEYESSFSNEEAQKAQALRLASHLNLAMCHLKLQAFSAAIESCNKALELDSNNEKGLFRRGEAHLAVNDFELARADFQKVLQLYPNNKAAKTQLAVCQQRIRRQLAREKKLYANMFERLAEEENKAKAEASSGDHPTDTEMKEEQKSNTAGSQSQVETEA
Chain of UniProt P46587 (whole entry, looked up): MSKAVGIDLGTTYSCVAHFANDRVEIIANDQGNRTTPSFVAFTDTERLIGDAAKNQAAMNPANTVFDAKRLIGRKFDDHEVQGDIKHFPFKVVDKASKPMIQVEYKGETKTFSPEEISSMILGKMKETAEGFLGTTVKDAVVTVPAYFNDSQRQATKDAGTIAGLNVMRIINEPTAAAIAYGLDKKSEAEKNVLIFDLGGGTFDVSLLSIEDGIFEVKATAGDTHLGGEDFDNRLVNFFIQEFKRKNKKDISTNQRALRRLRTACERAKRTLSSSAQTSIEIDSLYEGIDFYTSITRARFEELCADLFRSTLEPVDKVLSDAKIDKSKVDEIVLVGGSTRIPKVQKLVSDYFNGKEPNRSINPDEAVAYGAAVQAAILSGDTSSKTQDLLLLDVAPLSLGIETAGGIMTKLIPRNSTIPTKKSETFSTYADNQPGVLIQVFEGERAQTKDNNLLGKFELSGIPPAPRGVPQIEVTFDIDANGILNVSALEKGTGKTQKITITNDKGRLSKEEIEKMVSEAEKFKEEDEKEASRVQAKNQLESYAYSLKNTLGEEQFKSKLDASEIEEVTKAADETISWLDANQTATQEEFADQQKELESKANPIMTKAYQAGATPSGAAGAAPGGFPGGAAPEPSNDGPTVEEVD

`CC(C)C[C@H](NC(=O)[C@H](Cc1ccccc1)NC(=O)[C@H](CCCNC(=N)N)NC(=O)[C@H](C)NC(=O)[C@H](Cc1ccccc1)NC(=O)[C@H](Cc1ccccc1)NC(=O)[C@@H]1CCCN1C(=O)[C@H](CC(C)C)NC(=O)[C@H](C)NC(=O)[C@H](CCCCN)NC(=O)CN)C(=O)N[C@@H](CO)C(=O)N[C@H](C(=O)N[C@@H](CO)C(=O)O)C(C)C` gave a Kd of 308 ± 62 nM (uncharacterized protein (Microcystis aeruginosa MRC, UniProt B2G3D0); isothermal titration calorimetry; pH 8.0, 25 °C).
`CC[C@H](C)[C@@H]1NC(=O)[C@H](CC(C)C)NC(=O)[C@H](CCC(=O)O)NC(=O)CNC(=O)CNC(=O)[C@@H](NC(=O)[C@@H](NC(=O)[C@H](CCC(N)=O)NC(=O)[C@H](CC(C)C)NC(=O)[C@H](CCC(N)=O)NC(=O)[C@H](Cc2ccc(O)cc2)NC(=O)[C@@H](N)[C@@H](C)O)C(C)C)CSSC[C@@H]2NC(=O)[C@@H](NC(=O)[C@H](C)NC(=O)[C@H](CC(=O)O)NC(=O)[C@H](C)NC(=O)[C@H](CC(C)C)NC(=O)CN)CSSC[C@H](NC(=O)[C@H](CCC(=O)O)NC(=O)[C@H](CC(N)=O)NC(=O)[C@H](CCCCN)NC2=O)C(=O)N[C@@H](CC(N)=O)C(=O)N[C@@H](CCC(=O)O)C(=O)N[C@@H](CC(N)=O)C(=O)N[C@@H](CCC(=O)O)C(=O)N[C@@H](CC(C)C)C(=O)N[C@@H](CC(=O)O)C(=O)N[C@@H](CCCNC(=N)N)C(=O)N[C@@H](Cc2ccc(O)cc2)C(=O)N[C@H](C(=O)N[C@@H](CC(N)=O)C(N)=O)CSSC[C@@H](C(=O)NCC(=O)N[C@@H](CC(=O)O)C(=O)N[C@@H](CCCNC(=N)N)C(=O)NCC(=O)N[C@H](C(=O)N[C@@H](Cc2ccc(O)cc2)C(=O)N[C@H](C(=O)N2CCC[C@H]2C(=O)N[C@@H](CO)C(=O)N[C@@H](CCCNC(=N)N)C(=O)N[C@@H](CCCNC(=N)N)C(=O)O)[C@@H](C)O)C(C)C)NC(=O)[C@H](Cc2c[nH]cn2)NC(=O)[C@H](CCC(=O)O)NC(=O)[C@H]([C@@H](C)O)NC(=O)[C@H](CC(C)C)NC(=O)[C@H](C)NC(=O)[C@H](CC(=O)O)NC1=O` gave a Kd of 41.3 nM (IGF1R (Homo sapiens, UniProt P08069); ligand displacement, radioligand).
The Kd of `NCC(=O)NCC(=O)N[C@@H](Cc1c[nH]cn1)C(=O)O` is reported as 260000 ± 80000 nM (HCV IV RNA; fluorescein-labelled RNA titration; 1 mM TCEP).
For `CC1=C[C@H](O/C=C2/C(=O)O[C@@H]3c4ccccc4C[C@H]23)OC1=O` (racemic), the Kd was 22000 nM (RMS3 (Lathyrus oleraceus, UniProt A0A109QYD3); binding, fluorescence).
`C[C@H](NC(=O)[C@H](Cc1c[nH]cn1)NC(=O)[C@H](CO)NC(=O)[C@H](CC(=O)O)NC(=O)CCCC[C@@H]1SC[C@@H]2NC(=O)N[C@@H]21)C(=O)N[C@@H](CCCCN)C(=O)N[C@@H](CCCNC(=N)N)C(=O)N[C@@H](Cc1c[nH]cn1)C(=O)N[C@@H](Cc1c[nH]cn1)C(=O)NCC(=O)N[C@@H](Cc1ccc(O)cc1)C(=O)N[C@@H](CCCCN)C(=O)N[C@@H](CCCNC(=N)N)C(=O)N[C@@H](CCCCN)C(=O)N[C@@H](Cc1ccccc1)C(=O)N[C@@H](Cc1c[nH]cn1)C(=O)N[C@@H](CCC(=O)O)C(=O)N[C@@H](CCCCN)C(=O)N[C@@H](Cc1c[nH]cn1)C(=O)N[C@@H](Cc1c[nH]cn1)C(=O)N[C@@H](CO)C(=O)N[C@@H](Cc1c[nH]cn1)C(=O)N[C@@H](CCCNC(=N)N)C(=O)NCC(=O)N[C@@H](Cc1ccc(O)cc1)C(=O)O` has a Kd of 1300 ± 400 nM (Heat shock protein SSA2 (SSA2, Candida albicans, UniProt P46587); FPLC gel filtration; pH 7.4, with: ATPγS 1 mM).
`COc1cc2c3cc1Oc1cc(ccc1O)CC1c4c(cc(OC)c(O)c4Oc4ccc(cc4)CC3N(C)CC2)CCN1C` (centres unmarked) gave a Kd of < 75000 nM (Glideosome-associated protein 50 (GAP50, Plasmodium falciparum, UniProt Q8I2X3); surface plasmon resonance).
The Kd of `Nc1nc2ncc(CNc3ccc(C(=O)N[C@@H](CCC(=O)NCCOCCOCCNC(=O)CN4CCN5CCN(CC4)CC(=O)[O][Al]([F])[O]C(=O)C5)C(=O)O)cc3)nc2c(=O)[nH]1` [fluorine-18 labelled] is reported as ~1 nM (FOLR1 (Homo sapiens, UniProt P15328); binding, radioligand saturation binding; KB and CAL-51 tumour xenograft homogenates).
With `CC(C)CC(NC(=O)C(NC(=O)NC(C(=O)O)C(C)C)C1CCNC(=N)N1)C(=O)NCCCNC(C(=O)O)C(OC1OC(CN)C(O)C1O)C1OC(n2ccc(=O)[nH]c2=O)C(O)C1O` (centres unmarked) the Kd was 68.4 nM (mraY (Aquifex aeolicus, UniProt O66465, F262W); binding, ITC).
`CSCC[C@H](NC(C)=O)C(=O)N[C@H](C(=O)N[C@@H](Cc1ccc(O)cc1)C(=O)N[C@@H](CCCNC(=N)N)C(=O)N[C@H]1CSCc2cc3cc(c2)CSC[C@H](NC(=O)[C@H](Cc2ccc(O)cc2)NC(=O)[C@@H]2CCCN2C1=O)C(=O)N[C@@H](CC(C)C)C(=O)N[C@@H](Cc1ccc(O)cc1)C(=O)N[C@@H](CC(C)C)C(=O)N[C@H](C(=O)N[C@@H](CC(C)C)C(=O)N[C@@H](CC(C)C)C(=O)N[C@H](C(=O)NCC(=O)N[C@@H](CO)C(=O)NCC(=O)N[C@@H](CO)C(=O)NCC(=O)N[C@@H](CO)C(=O)N[C@@H](CC(=O)O)C(=O)N[C@@H](Cc1ccc(O)cc1)C(=O)N[C@@H](CCCCN)C(=O)N[C@@H](CC(=O)O)C(=O)N[C@@H](CC(=O)O)C(=O)N[C@@H](CC(=O)O)C(=O)N[C@@H](CC(=O)O)C(=O)N[C@@H](CCCCN)C(N)=O)[C@@H](C)O)CSC3)C(C)C` has a Kd of 7.5 nM (FGFR3 (Homo sapiens, UniProt P22607); binding, BLI).
`CC[C@H](C)[C@H](NC(=O)[C@H](CC(=O)O)NC(=O)CNC(=O)[C@@H](NC(=O)[C@@H](NC(=O)[C@H](CCC(=O)O)NC(=O)CNC(=O)CCCCCNC(=O)CCCC[C@@H]1SC[C@@H]2NC(=O)N[C@@H]21)[C@@H](C)CC)[C@@H](C)CC)C(=O)N[C@@H](CCCNC(=N)N)C(=O)N[C@@H](CCC(N)=O)C(=O)N[C@@H](C)C(=O)N[C@@H](Cc1c[nH]cn1)C(=O)N[C@@H](CO)C(=O)N[C@@H](CC(=O)N[C@@H]1O[C@H](CO)[C@@H](O[C@@H]2O[C@H](CO)[C@@H](O[C@@H]3O[C@H](CO[C@H]4O[C@H](CO[C@H]5O[C@H](CO)[C@@H](O)[C@H](O)[C@@H]5O[C@H]5O[C@H](CO)[C@@H](O)[C@H](O)[C@@H]5O)[C@@H](O)[C@H](O[C@H]5O[C@H](CO)[C@@H](O)[C@H](O)[C@@H]5O[C@H]5O[C@H](CO)[C@@H](O)[C@H](O)[C@@H]5O)[C@@H]4O)[C@@H](O)[C@H](O[C@H]4O[C@H](CO)[C@@H](O)[C@H](O)[C@@H]4O[C@H]4O[C@H](CO)[C@@H](O)[C@H](O)[C@@H]4O[C@H]4O[C@H](CO)[C@@H](O)[C@H](O)[C@@H]4O)[C@@H]3O)[C@H](O)[C@H]2NC(C)=O)[C@H](O)[C@H]1NC(C)=O)C(=O)N[C@H](C(=O)N[C@@H](CO)C(=O)N[C@@H](CCCNC(=N)N)C(=O)N[C@@H](C)C(=O)N[C@@H](CCCCN)C(=O)N[C@@H](Cc1c[nH]c2ccccc12)C(=O)N[C@@H](CC(N)=O)C(N)=O)[C@@H](C)CC` gave a Kd of 4350 nM (PGT128 antibody; SPR; pH 7.4, 25 °C).
With `CC[C@H](C)[C@H](NC(=O)[C@H](CCCNC(=N)N)NC(=O)[C@H](CO)NC(=O)[C@@H](NC(=O)[C@H](CC(=O)O)NC(=O)[C@H](CC(=O)O)NC(=O)CCCCCNC(=O)c1ccc2c(c1)C(=O)OC21c2ccc(O)cc2Oc2cc(O)ccc21)[C@@H](C)O)C(=O)N[C@@H](CCC(=O)O)C(=O)N[C@@H](CCC(=O)O)C(=O)N[C@H](C(=O)N[C@@H](CC(=O)O)C(=O)O)C(C)C` the Kd was > 25000 nM (FKBP4 (Homo sapiens, UniProt Q02790); binding, FP; pH 7.4).

Repeated from above:
The Kd of `Nc1nc2ncc(CNc3ccc(C(=O)N[C@@H](CCC(=O)NCCOCCOCCNC(=O)CN4CCN5CCN(CC4)CC(=O)[O][Al]([F])[O]C(=O)C5)C(=O)O)cc3)nc2c(=O)[nH]1` [fluorine-18 labelled] is reported as ~1 nM (FOLR1 (Homo sapiens, UniProt P15328); binding, radioligand saturation binding; KB and CAL-51 tumour xenograft homogenates).
With `CC(C)CC(NC(=O)C(NC(=O)NC(C(=O)O)C(C)C)C1CCNC(=N)N1)C(=O)NCCCNC(C(=O)O)C(OC1OC(CN)C(O)C1O)C1OC(n2ccc(=O)[nH]c2=O)C(O)C1O` (centres unmarked) the Kd was 68.4 nM (mraY (Aquifex aeolicus, UniProt O66465, F262W); binding, ITC).
